Published values gathered from unrelated publications.
Lines come from different studies, so protocols differ. “And” joins repeats or separate records; there may be more than shown. ± marks the error that the study gave.
CASP7: Caspase-7 (CASP7, Homo sapiens, UniProt P55210)
UniProt P55210, sequence (whole entry, looked up): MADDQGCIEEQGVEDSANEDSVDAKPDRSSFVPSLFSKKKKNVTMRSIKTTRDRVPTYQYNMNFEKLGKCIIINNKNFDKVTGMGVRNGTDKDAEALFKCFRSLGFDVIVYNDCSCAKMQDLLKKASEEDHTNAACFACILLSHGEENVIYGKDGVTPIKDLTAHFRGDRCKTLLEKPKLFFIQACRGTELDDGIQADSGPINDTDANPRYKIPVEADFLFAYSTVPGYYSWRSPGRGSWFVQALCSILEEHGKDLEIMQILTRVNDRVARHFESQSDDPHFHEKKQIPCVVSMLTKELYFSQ
T1: G-quadruplex DNA, parallel G-quadruplex; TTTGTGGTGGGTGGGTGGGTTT
UniProt P07437, sequence (whole entry, looked up): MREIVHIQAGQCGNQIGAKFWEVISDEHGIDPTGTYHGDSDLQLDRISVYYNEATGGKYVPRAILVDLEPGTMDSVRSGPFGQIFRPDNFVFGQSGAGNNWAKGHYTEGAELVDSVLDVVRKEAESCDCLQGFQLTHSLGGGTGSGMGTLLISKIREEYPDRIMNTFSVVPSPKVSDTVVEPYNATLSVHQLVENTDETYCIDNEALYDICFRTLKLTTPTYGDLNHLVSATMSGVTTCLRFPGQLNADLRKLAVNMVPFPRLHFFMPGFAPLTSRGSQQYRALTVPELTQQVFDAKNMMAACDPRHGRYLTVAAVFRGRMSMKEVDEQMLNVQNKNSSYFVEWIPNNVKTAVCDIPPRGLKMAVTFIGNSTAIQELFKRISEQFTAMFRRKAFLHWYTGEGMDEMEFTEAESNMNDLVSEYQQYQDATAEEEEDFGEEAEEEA
UniProt Q9UKP6, sequence (whole entry, unmodified, looked up): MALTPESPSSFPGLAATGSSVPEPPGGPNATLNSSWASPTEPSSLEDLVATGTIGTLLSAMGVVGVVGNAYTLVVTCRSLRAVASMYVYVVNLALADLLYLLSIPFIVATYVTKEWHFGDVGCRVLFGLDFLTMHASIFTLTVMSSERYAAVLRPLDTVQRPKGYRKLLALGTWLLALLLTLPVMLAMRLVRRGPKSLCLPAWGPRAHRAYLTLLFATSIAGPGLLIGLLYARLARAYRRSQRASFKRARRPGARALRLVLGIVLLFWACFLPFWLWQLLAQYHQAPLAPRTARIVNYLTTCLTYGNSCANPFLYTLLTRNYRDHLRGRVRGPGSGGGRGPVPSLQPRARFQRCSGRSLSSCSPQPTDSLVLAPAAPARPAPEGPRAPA
UniProt P19491, sequence (whole entry, looked up): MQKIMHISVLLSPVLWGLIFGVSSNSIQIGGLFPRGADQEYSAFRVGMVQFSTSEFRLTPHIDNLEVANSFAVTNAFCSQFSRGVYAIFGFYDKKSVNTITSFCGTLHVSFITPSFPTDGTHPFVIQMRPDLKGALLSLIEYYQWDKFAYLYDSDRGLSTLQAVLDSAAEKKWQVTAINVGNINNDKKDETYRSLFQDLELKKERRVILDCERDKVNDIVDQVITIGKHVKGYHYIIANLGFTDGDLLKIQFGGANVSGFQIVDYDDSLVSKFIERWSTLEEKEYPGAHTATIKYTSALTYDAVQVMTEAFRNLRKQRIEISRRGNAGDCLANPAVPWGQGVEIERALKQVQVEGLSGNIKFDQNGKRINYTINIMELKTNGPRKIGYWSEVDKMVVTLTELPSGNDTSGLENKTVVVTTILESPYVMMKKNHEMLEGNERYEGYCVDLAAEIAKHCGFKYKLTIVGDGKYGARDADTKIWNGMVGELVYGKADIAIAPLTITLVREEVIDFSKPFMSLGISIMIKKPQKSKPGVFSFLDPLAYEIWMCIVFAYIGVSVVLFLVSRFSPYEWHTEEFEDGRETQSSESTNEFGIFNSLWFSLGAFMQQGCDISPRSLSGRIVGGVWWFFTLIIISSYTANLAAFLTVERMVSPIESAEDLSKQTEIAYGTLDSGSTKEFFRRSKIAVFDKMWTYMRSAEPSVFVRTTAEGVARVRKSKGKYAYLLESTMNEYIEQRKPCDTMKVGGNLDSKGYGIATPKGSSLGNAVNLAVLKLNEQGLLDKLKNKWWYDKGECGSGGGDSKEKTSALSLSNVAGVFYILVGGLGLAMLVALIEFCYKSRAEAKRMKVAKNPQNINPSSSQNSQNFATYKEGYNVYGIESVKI
UniProt Q92831, sequence (whole entry, unmodified, looked up): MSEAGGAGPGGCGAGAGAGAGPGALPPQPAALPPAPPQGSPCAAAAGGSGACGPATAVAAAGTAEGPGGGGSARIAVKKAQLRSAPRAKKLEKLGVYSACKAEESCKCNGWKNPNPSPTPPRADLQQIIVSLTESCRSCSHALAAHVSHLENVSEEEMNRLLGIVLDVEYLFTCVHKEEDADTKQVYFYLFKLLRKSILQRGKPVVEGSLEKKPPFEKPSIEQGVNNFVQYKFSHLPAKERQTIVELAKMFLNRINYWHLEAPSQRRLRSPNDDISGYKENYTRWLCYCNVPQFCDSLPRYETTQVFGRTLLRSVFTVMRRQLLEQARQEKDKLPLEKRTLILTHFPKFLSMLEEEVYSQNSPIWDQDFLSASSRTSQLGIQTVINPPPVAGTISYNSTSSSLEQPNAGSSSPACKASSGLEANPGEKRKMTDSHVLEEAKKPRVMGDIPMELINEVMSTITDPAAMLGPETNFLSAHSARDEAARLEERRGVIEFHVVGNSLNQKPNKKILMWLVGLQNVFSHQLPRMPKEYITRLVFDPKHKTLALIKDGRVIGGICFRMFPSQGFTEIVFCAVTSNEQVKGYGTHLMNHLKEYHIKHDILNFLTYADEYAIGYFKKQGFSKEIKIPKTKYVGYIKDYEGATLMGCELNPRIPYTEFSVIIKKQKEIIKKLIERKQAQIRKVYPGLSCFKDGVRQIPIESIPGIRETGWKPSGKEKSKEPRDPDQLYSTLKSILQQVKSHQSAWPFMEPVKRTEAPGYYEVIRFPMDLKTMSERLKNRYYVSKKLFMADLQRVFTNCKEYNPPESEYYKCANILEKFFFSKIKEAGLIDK
UniProt O76041, sequence (whole entry, looked up): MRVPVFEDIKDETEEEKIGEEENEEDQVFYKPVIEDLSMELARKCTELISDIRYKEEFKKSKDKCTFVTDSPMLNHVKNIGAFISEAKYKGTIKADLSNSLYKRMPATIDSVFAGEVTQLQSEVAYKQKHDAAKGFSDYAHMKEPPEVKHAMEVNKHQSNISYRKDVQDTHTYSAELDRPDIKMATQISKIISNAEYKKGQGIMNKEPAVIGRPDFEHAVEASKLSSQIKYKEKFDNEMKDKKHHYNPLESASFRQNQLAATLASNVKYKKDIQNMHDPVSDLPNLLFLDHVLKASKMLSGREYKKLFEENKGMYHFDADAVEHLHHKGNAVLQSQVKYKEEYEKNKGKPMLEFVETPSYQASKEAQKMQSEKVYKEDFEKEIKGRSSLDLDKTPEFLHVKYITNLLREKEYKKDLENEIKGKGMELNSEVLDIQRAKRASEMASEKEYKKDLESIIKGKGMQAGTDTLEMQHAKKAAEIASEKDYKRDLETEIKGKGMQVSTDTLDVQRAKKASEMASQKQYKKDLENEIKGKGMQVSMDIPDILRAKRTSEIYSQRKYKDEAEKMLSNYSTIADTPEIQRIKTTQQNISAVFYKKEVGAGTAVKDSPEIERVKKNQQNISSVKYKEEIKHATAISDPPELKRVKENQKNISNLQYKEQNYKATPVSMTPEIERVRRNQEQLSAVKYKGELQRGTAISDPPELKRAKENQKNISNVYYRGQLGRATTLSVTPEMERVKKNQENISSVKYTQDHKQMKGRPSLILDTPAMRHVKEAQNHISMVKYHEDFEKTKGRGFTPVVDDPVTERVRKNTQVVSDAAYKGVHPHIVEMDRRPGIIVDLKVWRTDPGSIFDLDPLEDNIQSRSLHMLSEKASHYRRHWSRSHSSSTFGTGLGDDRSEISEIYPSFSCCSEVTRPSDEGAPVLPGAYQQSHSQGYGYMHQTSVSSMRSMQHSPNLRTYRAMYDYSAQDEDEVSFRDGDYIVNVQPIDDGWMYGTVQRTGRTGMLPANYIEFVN
UniProt Q9Y2U5, sequence (whole entry, looked up): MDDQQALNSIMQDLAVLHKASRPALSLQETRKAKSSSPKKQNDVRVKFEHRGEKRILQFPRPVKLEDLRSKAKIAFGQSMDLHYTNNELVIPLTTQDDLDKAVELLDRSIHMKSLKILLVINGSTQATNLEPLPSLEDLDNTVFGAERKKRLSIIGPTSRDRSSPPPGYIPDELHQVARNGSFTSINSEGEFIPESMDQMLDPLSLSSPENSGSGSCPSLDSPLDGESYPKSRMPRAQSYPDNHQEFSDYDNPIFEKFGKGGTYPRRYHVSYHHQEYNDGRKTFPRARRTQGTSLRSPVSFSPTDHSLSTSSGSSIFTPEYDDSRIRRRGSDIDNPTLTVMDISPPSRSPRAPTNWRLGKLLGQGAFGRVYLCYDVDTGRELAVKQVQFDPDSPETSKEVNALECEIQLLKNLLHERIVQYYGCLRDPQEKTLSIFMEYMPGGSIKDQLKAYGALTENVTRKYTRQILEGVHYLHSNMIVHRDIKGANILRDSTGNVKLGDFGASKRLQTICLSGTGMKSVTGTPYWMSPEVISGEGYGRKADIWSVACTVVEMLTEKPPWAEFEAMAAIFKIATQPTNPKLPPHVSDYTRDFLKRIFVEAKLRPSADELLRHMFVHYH
UniProt P34972, sequence (whole entry, looked up): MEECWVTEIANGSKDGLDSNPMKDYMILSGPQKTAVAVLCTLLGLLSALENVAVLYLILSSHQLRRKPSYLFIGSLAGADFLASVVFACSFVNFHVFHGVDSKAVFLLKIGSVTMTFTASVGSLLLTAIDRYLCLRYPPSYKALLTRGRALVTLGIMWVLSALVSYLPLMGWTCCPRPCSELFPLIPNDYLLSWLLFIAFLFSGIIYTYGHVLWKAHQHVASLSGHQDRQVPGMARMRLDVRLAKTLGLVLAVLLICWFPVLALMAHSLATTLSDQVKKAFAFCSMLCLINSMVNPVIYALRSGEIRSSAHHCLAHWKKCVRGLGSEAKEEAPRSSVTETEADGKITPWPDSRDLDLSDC

CC(=O)N1C[C@H](O)C[C@H]1C(=O)N[C@H](C(=O)N[C@@H](CO)C(=O)N[C@@H](CC(=O)O)C(=O)COC(=O)c1c(C)cccc1C)C(C)C  kinact/KI (CASP7; enzyme activity, inhibitor): 2500 M⁻¹ s⁻¹
COc1cc(-c2cn(C)c(=O)c3cnccc23)cc(OC)c1CN(C)C  ΔTm (KAT2B (Homo sapiens, UniProt Q92831)): 1.1 °C
O=C(CN1CCCCC1)Nc1ccc2[nH]c(-c3cccc(-c4nc5cc(NC(=O)CN6CCCCC6)ccc5[nH]4)n3)nc2c1  Kd (T1, G-quadruplex DNA, parallel G-quadruplex; BLI; parallel G4, read off a plot): 4.52 µM
O=C1c2sc(-c3ccc(N4CCC(CO)CC4)nc3F)nc2CCN1c1cccnc1  SPR response (TAR DNA-binding protein 43, aggregated (TARDBP, Homo sapiens, UniProt Q13148); binding, surface plasmon resonance; brain-derived TDP-43 aggregates; 2.34 nM): 0.92 RU
N#CN1CC[C@H](C(=O)Nc2nc3c(s2)CN(C(=O)Cn2cc(COCCOCCOCCOCCNC(=O)CCCC[C@@H]4SC[C@@H]5NC(=O)N[C@@H]54)nn2)CC3)C1  iBAQ abundance (TUBB (Homo sapiens, UniProt P07437); probe binding, affinity probe, neutravidin pull-down LC-MS/MS; HEK293T, cell lysate; 5 µM, 1 h, single replicate, unit not given; higher = more pulled down): 8.67e+07 and 1.13e+08 and 1.5e+08
CCCCCC(O)/C=C/C=O (centres unmarked)  SILAC-ABPP ratio (Nebulette (NEBL, Homo sapiens, UniProt O76041); ATP probe labelling, acylphosphate-ATP probe SILAC-ABPP; ZAK-transfected HEK293T proteome; 100 µM, 30 min; baseline: DMSO over compound, higher = stronger blockade): 20
Cc1ccc(-c2c[nH]nc2C(=O)Nc2cccnc2)c(C)c1  number of kinases hit (human kinase panel; binding, KINOMEscan; 10000 nM, %Ctrl below 10): 1
Cc1cc(C)cc(COc2cc3c(cc2OCc2cc(C)cc(C)c2)C2CC(O)(Cc4cn(CCOCCOCCNC(=O)CCCCC5SCC6NC(=O)NC65)nn4)CC(C)N2CC3)c1 (centres unmarked)  SILAC ratio (RAB14 (Homo sapiens, UniProt P61106); biotinylated probe pull-down; 10 µM probe; baseline: heavy over light): 2.98
COC(=O)Cc1cc2c(cc1C(=O)c1cccc(Br)c1)OCO2  desensitization time constant (Gria2 (Rattus norvegicus, UniProt P19491); glutamate-evoked current, whole-cell patch clamp; HEK-293T; concentration not given, weighted tau, 500 ms pulse, with: glutamate): 2.3 ± 0.1 ms
NC(=O)c1cccc(NC(=O)c2cc(-c3ccccc3)nn2-c2ccccc2)c1  inhibition (Genome polyprotein, NS2B-NS3 protease (dengue virus type 2, UniProt P29990); enzyme activity, fluorogenic AMC substrate; 50 µM): 12%
CC(=O)N[C@@H](CC(C)C)C(=O)N[C@@H](CCC(=O)O)C(=O)N[C@H](C(=O)N[C@@H](CC(=O)O)C(=O)COC(=O)c1c(C)cccc1C)[C@@H](C)OCc1ccccc1  kinact/KI (CASP7; enzyme activity, inhibitor): 51200 M⁻¹ s⁻¹
CCOC(=O)C(CC)(CCCSCCOCCNc1ccc([N+](=O)[O-])c2nonc12)NC(=O)c1ccc(C2CC2)c(Cc2ccc(F)cc2)n1 (centres unmarked)  Emax (CNR2 (Homo sapiens, UniProt P34972); cAMP, agonist): 121%
Cc1cc(NC(=O)[C@H](O)c2cc(F)cc(F)c2)ccc1-c1cnc(N)c(C(=O)NC(C)C)c1  remaining binding (MAP3K2 (Homo sapiens, UniProt Q9Y2U5); binding, competition with immobilised ligand; 10 µM): 14%
CC(C)[C@H](NC(=O)[C@@H]1CSSC(C)(C)[C@H](NC(=O)[C@@H](N)CC(=O)O)C(=O)N[C@@H](Cc2ccccc2)C(=O)N[C@@H](Cc2c[nH]c3ccccc23)C(=O)N[C@@H](CCCCN)C(=O)N[C@@H](Cc2ccc(O)cc2)C(=O)N1)C(=O)O  span (UTS2R (Homo sapiens, UniProt Q9UKP6, F274A); IP1 accumulation, agonist, IP1 HTRF; HEK293T; baseline: wild-type receptor): 62 ± 11%
